Measured values collected from several papers.
Every numbered part comes from another study and shows a few of its results, in no order. Changes are numbered by the printed parent chain.
UniProt Q08881, sequence (whole entry, looked up): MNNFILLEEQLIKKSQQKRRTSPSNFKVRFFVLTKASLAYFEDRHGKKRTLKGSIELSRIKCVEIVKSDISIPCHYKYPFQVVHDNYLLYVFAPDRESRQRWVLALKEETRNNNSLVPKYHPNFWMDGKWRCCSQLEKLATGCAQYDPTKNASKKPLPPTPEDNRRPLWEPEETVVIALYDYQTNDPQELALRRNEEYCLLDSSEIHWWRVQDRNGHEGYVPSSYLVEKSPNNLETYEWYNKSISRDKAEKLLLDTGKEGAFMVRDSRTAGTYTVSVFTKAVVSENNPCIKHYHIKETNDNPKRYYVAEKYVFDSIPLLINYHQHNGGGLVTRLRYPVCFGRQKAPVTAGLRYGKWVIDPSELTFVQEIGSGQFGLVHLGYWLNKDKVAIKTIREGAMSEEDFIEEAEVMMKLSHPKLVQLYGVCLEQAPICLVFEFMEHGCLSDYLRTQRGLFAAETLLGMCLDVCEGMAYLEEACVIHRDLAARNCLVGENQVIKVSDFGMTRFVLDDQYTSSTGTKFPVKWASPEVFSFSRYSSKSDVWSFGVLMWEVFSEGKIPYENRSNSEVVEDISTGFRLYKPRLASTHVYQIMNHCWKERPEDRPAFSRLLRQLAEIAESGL
UniProt Q5VT25, sequence (whole entry, looked up): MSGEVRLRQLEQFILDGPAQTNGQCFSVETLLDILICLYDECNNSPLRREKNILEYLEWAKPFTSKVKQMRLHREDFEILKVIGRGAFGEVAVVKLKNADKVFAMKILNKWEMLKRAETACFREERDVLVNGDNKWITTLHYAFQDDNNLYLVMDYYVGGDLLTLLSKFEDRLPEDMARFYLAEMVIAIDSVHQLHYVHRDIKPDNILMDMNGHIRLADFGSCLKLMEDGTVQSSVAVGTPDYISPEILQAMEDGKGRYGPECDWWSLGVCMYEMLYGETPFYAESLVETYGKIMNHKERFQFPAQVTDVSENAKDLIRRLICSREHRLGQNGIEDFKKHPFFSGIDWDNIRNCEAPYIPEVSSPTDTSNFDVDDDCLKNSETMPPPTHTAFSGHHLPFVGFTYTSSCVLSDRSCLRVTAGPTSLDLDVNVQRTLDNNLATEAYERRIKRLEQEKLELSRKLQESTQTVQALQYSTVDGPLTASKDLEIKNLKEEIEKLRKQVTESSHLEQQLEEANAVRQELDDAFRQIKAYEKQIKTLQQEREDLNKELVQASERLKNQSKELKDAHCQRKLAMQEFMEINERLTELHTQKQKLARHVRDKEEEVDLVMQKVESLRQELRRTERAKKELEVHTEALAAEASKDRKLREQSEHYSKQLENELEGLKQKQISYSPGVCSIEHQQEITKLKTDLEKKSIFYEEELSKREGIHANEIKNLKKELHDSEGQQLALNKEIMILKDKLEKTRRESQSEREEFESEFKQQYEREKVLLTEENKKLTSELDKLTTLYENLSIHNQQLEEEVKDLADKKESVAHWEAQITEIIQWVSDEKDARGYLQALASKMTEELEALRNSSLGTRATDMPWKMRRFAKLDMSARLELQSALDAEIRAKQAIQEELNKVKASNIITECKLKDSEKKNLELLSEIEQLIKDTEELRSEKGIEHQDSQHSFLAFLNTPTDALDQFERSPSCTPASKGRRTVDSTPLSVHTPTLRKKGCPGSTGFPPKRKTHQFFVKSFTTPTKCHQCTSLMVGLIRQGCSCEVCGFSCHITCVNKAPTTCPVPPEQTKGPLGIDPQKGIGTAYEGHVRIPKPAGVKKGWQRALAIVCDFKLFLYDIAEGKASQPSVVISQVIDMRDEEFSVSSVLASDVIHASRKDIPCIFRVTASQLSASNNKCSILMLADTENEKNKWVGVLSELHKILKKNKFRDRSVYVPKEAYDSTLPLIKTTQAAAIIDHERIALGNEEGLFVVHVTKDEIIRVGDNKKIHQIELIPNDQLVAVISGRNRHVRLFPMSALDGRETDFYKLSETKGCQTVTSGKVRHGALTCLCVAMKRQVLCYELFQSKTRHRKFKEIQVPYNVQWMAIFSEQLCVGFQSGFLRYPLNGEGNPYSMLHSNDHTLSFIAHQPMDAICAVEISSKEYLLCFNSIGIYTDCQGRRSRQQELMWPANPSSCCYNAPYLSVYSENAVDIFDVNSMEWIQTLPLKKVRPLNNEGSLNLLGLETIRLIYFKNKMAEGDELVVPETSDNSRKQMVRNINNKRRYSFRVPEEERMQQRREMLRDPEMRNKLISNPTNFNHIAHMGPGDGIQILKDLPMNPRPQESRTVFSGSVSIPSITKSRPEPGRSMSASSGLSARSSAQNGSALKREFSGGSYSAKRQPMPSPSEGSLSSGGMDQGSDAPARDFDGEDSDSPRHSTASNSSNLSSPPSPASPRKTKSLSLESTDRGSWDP
UniProt Q96RG2, sequence (whole entry, looked up): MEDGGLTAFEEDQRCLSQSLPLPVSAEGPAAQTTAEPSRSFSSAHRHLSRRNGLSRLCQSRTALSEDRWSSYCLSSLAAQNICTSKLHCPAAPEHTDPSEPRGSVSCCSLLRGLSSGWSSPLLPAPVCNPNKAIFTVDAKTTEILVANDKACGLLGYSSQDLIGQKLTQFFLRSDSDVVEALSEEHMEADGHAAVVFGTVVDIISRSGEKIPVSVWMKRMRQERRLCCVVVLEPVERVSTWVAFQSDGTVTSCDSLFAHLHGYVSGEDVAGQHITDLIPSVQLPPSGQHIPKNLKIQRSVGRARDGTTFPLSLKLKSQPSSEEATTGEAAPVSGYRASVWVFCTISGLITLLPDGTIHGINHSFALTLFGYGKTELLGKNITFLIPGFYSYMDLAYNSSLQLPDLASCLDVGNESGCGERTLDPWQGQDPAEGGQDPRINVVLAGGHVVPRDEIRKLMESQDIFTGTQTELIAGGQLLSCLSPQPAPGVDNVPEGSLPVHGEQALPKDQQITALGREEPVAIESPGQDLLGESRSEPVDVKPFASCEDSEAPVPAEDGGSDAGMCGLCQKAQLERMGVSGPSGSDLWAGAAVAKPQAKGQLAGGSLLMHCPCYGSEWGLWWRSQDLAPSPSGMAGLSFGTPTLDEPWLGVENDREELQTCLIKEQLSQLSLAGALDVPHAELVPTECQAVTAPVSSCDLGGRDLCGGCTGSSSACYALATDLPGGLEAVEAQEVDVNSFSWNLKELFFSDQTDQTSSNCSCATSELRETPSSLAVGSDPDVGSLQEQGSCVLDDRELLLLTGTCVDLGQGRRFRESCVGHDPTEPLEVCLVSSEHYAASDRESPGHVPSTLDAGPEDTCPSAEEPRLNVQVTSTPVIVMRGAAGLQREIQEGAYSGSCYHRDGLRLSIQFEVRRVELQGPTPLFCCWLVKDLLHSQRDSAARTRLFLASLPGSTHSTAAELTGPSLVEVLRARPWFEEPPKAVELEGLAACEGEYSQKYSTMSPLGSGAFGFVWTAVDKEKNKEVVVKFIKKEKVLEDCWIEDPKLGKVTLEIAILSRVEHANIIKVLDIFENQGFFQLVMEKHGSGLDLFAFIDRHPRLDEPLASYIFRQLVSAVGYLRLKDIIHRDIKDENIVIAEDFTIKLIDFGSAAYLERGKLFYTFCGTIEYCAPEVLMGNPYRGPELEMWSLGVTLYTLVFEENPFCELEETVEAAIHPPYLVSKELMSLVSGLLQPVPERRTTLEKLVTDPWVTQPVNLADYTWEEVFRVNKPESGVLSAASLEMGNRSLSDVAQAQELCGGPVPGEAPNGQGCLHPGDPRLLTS
UniProt P53667, sequence (whole entry, looked up): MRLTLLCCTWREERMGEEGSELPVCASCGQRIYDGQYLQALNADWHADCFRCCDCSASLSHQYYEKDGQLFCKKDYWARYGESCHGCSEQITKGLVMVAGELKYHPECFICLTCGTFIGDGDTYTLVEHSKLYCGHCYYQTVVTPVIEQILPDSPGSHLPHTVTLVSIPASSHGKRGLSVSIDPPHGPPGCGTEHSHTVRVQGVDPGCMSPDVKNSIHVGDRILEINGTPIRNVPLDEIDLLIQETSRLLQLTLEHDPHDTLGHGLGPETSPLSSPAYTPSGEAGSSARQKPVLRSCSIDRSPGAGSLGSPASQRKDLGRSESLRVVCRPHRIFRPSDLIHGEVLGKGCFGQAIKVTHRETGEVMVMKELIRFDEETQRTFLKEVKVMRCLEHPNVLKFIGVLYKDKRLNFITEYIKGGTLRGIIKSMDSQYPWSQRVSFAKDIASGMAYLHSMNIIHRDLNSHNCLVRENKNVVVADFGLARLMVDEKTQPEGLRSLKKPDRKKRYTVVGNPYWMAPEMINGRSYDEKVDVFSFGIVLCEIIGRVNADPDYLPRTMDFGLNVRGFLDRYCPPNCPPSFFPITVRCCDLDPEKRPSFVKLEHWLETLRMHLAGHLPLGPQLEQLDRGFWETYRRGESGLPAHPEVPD
UniProt Q00526, sequence (whole entry, looked up): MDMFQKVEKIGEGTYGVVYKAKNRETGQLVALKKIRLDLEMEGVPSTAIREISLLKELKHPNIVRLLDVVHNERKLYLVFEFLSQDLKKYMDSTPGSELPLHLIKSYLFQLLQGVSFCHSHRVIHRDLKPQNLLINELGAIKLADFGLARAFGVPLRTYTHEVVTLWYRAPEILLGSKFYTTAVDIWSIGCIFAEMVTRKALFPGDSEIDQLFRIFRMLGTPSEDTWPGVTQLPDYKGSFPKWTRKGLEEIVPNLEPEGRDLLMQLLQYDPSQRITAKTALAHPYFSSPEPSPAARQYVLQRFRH

Study 1
Target: ABI1, truncated, D143A, DHFR fusion (Arabidopsis thaliana)
Method: DHFR PCA, deep sequencing
Medium: yeast
Setting: methotrexate growth selection, single substitutions
Added: (+)-ABA 0.11 µM
Relative to: wild-type fitted maximum
Direction: higher = stronger binding
Starting sequence: PYL1, truncated, DHFR fusion (Arabidopsis thaliana); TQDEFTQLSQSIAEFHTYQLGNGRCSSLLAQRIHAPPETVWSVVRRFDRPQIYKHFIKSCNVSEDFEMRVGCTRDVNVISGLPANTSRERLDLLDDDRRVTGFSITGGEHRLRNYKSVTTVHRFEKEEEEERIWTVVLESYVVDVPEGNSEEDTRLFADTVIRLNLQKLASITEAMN
`R90S` — result for “relative binding score”: 2.06%.
For `I172S`, “relative binding score” read -1.15%.
`K126A`: “relative binding score” 60.5%.
`V62W` — result for “relative binding score”: -10.1%.
For `V76C`, “relative binding score” read 4.72%.
For `N22P`, “relative binding score” read 59.4%.
`S42V` — result for “relative binding score”: -0.394%.
`N177L` — result for “relative binding score”: 22.2%.

Study 2
SMILES: Cc1nc(Nc2ncc(C(=O)Nc3c(C)cccc3Cl)s2)cc(N2CCN(CCO)CC2)n1
Read-out: enzyme activity
Action: inhibitor
Tested at: 0.5 µM
Relative to: control
The remaining activity was 27.5% (NLK (Homo sapiens, UniProt Q9UBE8)).
The remaining activity was 1.96% (FYN (Homo sapiens, UniProt P06241)).
For PRKX (Homo sapiens, UniProt P51817): remaining activity read 105%.
The remaining activity was 110% (PASK (Homo sapiens, UniProt Q96RG2)).
For HIPK1 (Homo sapiens, UniProt Q86Z02): remaining activity read 99.5%.
The remaining activity was 95.3% (TAOK3 (Homo sapiens, UniProt Q9H2K8)).
The remaining activity was 90% (PKN1 (Homo sapiens, UniProt Q16512)).
ITK (Homo sapiens, UniProt Q08881) — remaining activity: 103%.
For ALK (Homo sapiens, UniProt Q9UM73): remaining activity read 110%.
For CDC42BPA (Homo sapiens, UniProt Q5VT25): remaining activity read 99.2%.
It gave 83.8% for remaining activity (STK25 (Homo sapiens, UniProt O00506)).
The remaining activity was 92.1% (FLT4 (Homo sapiens, UniProt P35916)).
It gave 91.7% for remaining activity (Cyclin-dependent kinase 3, with cyclin E (CDK3, Homo sapiens, UniProt Q00526)).
The remaining activity was 16.7% (LIM domain kinase 1 (LIMK1, Homo sapiens, UniProt P53667)).
For FGR (Homo sapiens, UniProt P09769): remaining activity read 1.7%.

Study 3
Target: Ras GTPase-activating protein-binding protein 1, C-terminal RGG region (G3BP1, Homo sapiens, UniProt Q13283)
UniProt Q13283, sequence (whole entry, looked up): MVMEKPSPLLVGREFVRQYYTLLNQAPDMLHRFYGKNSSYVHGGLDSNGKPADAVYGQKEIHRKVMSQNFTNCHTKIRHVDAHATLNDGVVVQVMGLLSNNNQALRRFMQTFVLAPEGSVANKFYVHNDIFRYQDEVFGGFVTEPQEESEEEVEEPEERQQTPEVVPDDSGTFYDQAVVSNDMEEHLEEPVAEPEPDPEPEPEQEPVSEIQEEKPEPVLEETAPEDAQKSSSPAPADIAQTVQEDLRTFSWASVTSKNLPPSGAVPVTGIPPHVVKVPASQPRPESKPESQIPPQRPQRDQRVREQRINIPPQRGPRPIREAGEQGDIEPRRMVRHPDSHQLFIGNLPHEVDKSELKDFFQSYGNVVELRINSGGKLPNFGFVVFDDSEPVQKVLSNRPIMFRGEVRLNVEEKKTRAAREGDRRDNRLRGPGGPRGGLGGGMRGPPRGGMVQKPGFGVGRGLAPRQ
Method: RNA Bind-n-Seq
Molecule type: RNA
Medium: in vitro
Tested at: 1 µM
Setting: whole 134-nt RNA, ends assumed
Added: 150 mM KCl
Relative to: input library
Direction: higher = stronger binding
Shared flanks, not repeated: GGGAGUUCUACAGUCCGACGAUC … UGGAAUUCUCGGGUGUCAAGG
With `UGGGAGGUGGAUUUUGUUUAUUUUUUUAGCUCAUUUCCAGGGGUGGGAAUUUUUUUUUAGUAUGUGUCAUGAAUAAAGUUGUUUUUGAAA` the log2 enrichment was 3.07.
The log2 enrichment of `CACAGACAACACGCACCCACACAGACACAGAGGGAAGGGGUUGGGAUGGGGACAGGGUGCACAGCAGGGCGGGGUAGGACCCCCGCCCCU` is reported as -1.04.
The log2 enrichment of `UCCUCAAGUCCUGUGCUACACAUCGUAUGUACCGAAUCGGCGGCGGGCGGGGAAAGUAUUAUGUUACGCCGUUCGGAUCUGCACUUCCAG` is reported as -0.322.
For `UGGCCCUGGUGGCAUGCGGGGAGGAAGAGGUGGCCUCAUGGAUCGUGGUGGUCCCGGUGGUAUGUUCAGAGGUGGCCGUGGUGGAGACAG`, the log2 enrichment was 1.82.
For `UCAAGUCCUGUGCUACACAUCGUAUGUACCGAAUCGGGAAAGGGAAAGGGAAAGGAAAGUAUUAUGUUACGCCGUUCGGAUCUGCACUUC`, the log2 enrichment was -1.51.
`CCUGUGCUACACAUCGUAUGUACCGAAUCGGGGCCCCCCCGGCCCCCCCGGCCCCCCCGGAAAGUAUUAUGUUACGCCGUUCGGAUCUGC` has a log2 enrichment of -1.36.
`CCUCAAGUCCUGUGCUACACAUCGUAUGUACCGAAUCGGUGGUGGUUUUUGGAAAGUAUUAUGUUACGCCGUUCGGAUCUGCACUUCCAG` has a log2 enrichment of -0.45.
For `CCUCAAGUCCUGUGCUACACAUCGUAUGUACCGAAUCGGGAGGAGGGGAGGGGAAAGUAUUAUGUUACGCCGUUCGGAUCUGCACUUCCA`, the log2 enrichment was 0.879.

Other studies, line by line
For `CN(c1ccnc(CNc2nc(Nc3ccc4c(c3)CC(=O)N4)ncc2C(F)(F)F)n1)S(C)(=O)=O`, the EC50 was 3.2 µM (PTK2 (Homo sapiens, UniProt Q05397); target engagement in cells, BRET).
`PhoQ, residues 284 288 289 292 302 303 SCEHLI` gave a fold induction of 7.91 (PhoP, residues 12 14 15 18 19 TTLRV (Escherichia coli, UniProt P23836); Sort-seq, measured: YFP reporter; E. coli; PhoQ-PhoP variant library, added: 10 µM Mg2+; relative to: high Mg2+ state, higher = stronger signaling).
For `CC(C)n1cnc(-c2ccc(F)cc2)c1-c1ncc(C(=O)Nc2ccc(N3CCN(C)CC3)cc2)[nH]1`, the Cholecystitis incidence was 0% (IPF patients; 60 mg once daily, adverse event).
With `COc1ccc2c(c1)O[C@H](c1ccc(OC)c(OC)c1)C[C@@H]2NC(=O)C1(c2ccc3c(c2)OC(F)(F)O3)CC1` (single isomer, unassigned) the remaining binding was 80% (ABL1 (Homo sapiens, UniProt P00519, E255K); KINOMEscan; 1 µM, E255K mutant, phosphorylated; relative to: control).
